{"data": "Assay results collected from several papers", "target": "NUAK family SNF1-like kinase 2 (NUAK2, Homo sapiens, UniProt Q9H093)", "Residues used in one study (Q9H093 1-628)": "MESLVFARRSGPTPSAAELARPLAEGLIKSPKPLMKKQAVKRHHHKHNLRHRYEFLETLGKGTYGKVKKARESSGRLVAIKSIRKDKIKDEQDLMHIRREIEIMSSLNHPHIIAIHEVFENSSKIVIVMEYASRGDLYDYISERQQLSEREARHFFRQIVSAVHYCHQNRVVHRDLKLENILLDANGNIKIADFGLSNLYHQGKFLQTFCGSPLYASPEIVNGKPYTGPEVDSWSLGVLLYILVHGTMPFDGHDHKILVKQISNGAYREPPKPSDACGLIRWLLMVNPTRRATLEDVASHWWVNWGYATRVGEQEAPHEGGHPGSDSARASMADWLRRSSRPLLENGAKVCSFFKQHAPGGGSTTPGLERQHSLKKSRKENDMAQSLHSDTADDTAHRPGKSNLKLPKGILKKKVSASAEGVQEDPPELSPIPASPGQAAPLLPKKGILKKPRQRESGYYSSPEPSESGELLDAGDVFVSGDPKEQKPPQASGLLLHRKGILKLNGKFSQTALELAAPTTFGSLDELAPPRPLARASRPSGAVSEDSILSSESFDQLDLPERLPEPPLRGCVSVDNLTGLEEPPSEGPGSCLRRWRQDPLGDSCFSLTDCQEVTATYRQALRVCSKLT", "note": "Several values in a cell are separate wells, animals, samples, runs or records."}
{"Structure (SMILES)": "CNC1C[S+]2CC[S+]3CC[S+](C1)[Ru-4]321([N]=C=S)[n]2c3ccc(OC)cc3c3c4c(c5cc(F)c[n+]1c5c32)C(=O)NC4=O (stereo not drawn)", "assay": "KinomeScan", "setting": "0.1 µM", "scale": "baseline: untreated", "endpoint": "remaining binding", "value": "80%"}
{"Structure (SMILES)": "CCn1cc(C(=O)O)c(=O)c2c(N)c(F)c(NC3CCCCC3)cc21", "assay": "kinase activity", "setting": "0.1 µM, together with: ATP at Km", "endpoint": "inhibition", "value": "0.7%"}
{"Structure (SMILES)": "CNC(=O)C1CCN(c2cc(C)c(F)cc2NC(=O)c2ccc(-c3cc(O)ccc3C)c(C)c2)CC1", "assay": "binding, competition with immobilised ligand", "setting": "1 µM", "endpoint": "remaining binding", "value": "71%"}
{"Structure (SMILES)": "COc1cc(Nc2nc(C)cc(-c3cnn4nc(OC)ccc34)n2)cc(C(F)(F)F)c1", "assay": "binding, competition with immobilised ligand", "setting": "1 µM", "endpoint": "remaining binding", "value": "93%"}
{"Structure (SMILES)": "COCC12C(=O)NC3C4(C(OC)CC1O)C1CC5(O)C(OC)C(O)C(OC(C)=O)(C1C5OC(=O)c1ccccc1)C3(O)C(OC)C24 (stereo not drawn)", "assay": "kinase activity, inhibitor, ProQinase kinase profiling", "setting": "25 µM", "scale": "baseline: control", "endpoint": "remaining activity", "value": "105% and 106%"}
{"Structure (SMILES)": "NC(=O)[C@@H](O)C[C@H]1CCc2sc3ncnc(O[C@H]4CC[C@H](N5CCOCC5)CC4)c3c21", "assay": "enzyme activity, inhibitor", "setting": "10 µM", "endpoint": "inhibition", "value": "4%"}
{"Structure (SMILES)": "CC(=O)N1c2ccc(-c3ccc(CNC(=O)c4cn5cc(-c6cnc(N)nc6)nc(N6CCOCC6)c5n4)cc3)cc2CC[C@@H]1C", "assay": "KINOMEscan", "setting": "10 µM", "endpoint": "remaining binding", "value": "87%"}
{"Structure (SMILES)": "Cc1c[nH]c2nccc(-c3ccc(C(=O)N[C@@H]4c5c(F)cc(C(F)F)cc5C[C@@H]4O)cn3)c12", "assay": "binding, competition with immobilised ligand", "setting": "3 µM", "endpoint": "remaining binding", "value": "1.1%"}
{"Structure (SMILES)": "CN1CCN(Cc2ccc(-c3ccc(CO[C@H]4CCC[C@@H]4NC(=O)c4cc(-c5cnn(C)c5)cnc4N)cc3)cc2)CC1", "assay": "enzyme activity, inhibitor", "setting": "0.1 µM", "endpoint": "inhibition", "value": "-2%"}
{"Structure (SMILES)": "Cc1cnc2nc1Nc1cccc(c1)COC/C=C/COCc1cc(ccc1OCCN1CCOCC1)N2", "assay": "cell-free assay", "setting": "0.1 µM", "endpoint": "remaining signal", "value": "65%"}
{"Structure (SMILES)": "CCN1CCN(Cc2ccc(C(=O)Nc3ccc(C)c(NCc4cnc5[nH]ccc5c4OC)c3)cc2C(F)(F)F)CC1", "assay": "binding, competition with immobilised ligand", "setting": "1 µM", "endpoint": "remaining binding", "value": "54%"}
{"Structure (SMILES)": "CN1CCN(Cc2ccc(NC(=O)c3cccc(C#Cc4cnc(N)c5ncccc45)c3)cc2C(F)(F)F)CC1", "assay": "cell-free assay, competition with immobilised ligand", "setting": "50 nM", "endpoint": "remaining binding", "value": "74%"}
{"Structure (SMILES)": "CN1CC[C@@H](COc2cnc(C#N)cc2-c2ccn3nc(NC(=O)C4CC4)cc3c2)C1", "assay": "enzyme activity, inhibitor", "setting": "1 µM", "endpoint": "inhibition", "value": "-4%"}
{"Structure (SMILES)": "C=CC(=O)Nc1cc(-c2nn(C3CCN(CCNC(=O)[C@H](C)CCC45CC6CC(CC(C6)C4)C5)CC3)c3ncnc(N)c23)ccc1Oc1ccccc1", "assay": "inhibitor, KiNativ profiling", "test system": "biochemical", "setting": "2 µM", "endpoint": "inhibition", "value": "3.9%"}
{"Structure (SMILES)": "CNS(=O)(=O)Nc1nccc(Cc2c(C)c3ccc(Oc4ncccc4F)cc3oc2=O)c1F", "assay": "binding, competition with immobilised ligand", "setting": "10 µM", "endpoint": "remaining binding", "value": "84%"}
